Assay results from different studies.
Each numbered part is a random draw from the data of one study; scales do not carry over between parts.
Sequence of UniProt P46098 (whole entry, looked up): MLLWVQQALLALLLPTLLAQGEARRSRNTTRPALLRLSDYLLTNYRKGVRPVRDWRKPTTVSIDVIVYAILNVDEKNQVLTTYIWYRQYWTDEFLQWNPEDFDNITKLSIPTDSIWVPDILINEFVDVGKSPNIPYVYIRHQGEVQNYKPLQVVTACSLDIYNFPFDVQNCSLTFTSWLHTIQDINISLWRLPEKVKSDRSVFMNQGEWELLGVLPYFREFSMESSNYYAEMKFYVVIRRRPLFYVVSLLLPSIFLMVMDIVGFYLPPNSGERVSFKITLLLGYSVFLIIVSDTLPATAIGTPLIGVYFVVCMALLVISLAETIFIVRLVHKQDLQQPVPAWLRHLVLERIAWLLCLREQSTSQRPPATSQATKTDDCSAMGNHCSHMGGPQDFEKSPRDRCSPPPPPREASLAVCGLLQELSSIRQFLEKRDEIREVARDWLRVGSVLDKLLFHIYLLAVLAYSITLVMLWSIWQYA
Sequence of UniProt P00519 (whole entry, unmodified, looked up): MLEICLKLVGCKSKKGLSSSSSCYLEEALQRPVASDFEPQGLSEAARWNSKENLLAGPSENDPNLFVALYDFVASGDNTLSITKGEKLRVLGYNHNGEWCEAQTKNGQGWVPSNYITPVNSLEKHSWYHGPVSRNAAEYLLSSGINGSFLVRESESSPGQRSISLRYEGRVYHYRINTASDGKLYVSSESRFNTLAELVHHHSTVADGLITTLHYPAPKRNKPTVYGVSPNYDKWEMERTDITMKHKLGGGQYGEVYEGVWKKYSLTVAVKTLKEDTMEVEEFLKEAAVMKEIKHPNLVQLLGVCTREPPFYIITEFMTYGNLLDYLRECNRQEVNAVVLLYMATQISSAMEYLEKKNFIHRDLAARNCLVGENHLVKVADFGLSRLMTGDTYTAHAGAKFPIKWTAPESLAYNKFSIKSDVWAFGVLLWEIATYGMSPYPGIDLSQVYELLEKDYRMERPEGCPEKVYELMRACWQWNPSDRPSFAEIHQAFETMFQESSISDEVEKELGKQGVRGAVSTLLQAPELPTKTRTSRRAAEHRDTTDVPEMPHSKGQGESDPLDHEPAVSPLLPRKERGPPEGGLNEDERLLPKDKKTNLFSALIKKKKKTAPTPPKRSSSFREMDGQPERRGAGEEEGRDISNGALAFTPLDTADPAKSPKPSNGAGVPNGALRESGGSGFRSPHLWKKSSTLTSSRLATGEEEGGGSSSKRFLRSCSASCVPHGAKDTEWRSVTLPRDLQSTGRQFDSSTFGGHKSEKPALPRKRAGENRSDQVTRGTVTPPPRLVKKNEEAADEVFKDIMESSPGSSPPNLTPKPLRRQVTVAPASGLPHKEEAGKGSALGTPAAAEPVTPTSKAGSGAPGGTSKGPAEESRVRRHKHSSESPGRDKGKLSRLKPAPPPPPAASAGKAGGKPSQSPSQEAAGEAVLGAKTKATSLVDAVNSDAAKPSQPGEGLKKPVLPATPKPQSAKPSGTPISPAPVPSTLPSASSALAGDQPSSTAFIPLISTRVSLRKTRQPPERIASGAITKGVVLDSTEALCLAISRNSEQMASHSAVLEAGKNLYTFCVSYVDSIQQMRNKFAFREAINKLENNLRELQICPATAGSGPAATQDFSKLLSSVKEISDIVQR

Block 1
Target: RING finger protein unkempt homolog, zinc fingers 1-6, SBP tag (UNK, Homo sapiens, UniProt Q9C0B0, residues 30-357)
Sequence of UniProt Q9C0B0 (30-357, looked up): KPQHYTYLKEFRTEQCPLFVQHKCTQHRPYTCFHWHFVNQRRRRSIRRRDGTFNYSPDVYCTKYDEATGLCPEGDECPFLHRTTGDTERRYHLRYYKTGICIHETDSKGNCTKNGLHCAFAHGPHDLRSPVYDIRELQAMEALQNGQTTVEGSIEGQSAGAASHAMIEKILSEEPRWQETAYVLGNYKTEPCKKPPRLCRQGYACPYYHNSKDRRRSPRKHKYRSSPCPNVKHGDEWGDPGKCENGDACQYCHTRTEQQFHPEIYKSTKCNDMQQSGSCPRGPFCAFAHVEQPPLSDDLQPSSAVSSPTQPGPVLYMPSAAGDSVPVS
Method: RNA Bind-n-Seq
Form: RNA
Sample: in vitro
Tested at: 100 nM
Setting: RNA with constant flanks, vertebrate orthologous sites, ends assumed
Reference: input RNA pool
Direction: higher = stronger binding
Constant ends, left off below: GGGAGUUCUACAGUCCGACGAUC … CAACAGAGGAUUGAGCAUCA
| Strand | bound/input enrichment [ratio] |
| --- | --- |
| CAGCUGAUUCACUCAUUGGGAGAGCUGCACAUAUAGCUGUUCUUGAUUCGGAAAUAUUUUUAGAGAAAUUCUUUCUGGUUGCUGCCCUCAAAUAUUUCCAAUAGUAUAAAAGCAUUGUUA | 1.48 |
| AUCUCGUGCCUCUCCCCACGGGGAGUGGGGGAAGCUGAAUGACCCUCAGCUGUUCCAAUCCAGUGGGUUUUUUUAAUUUGUUUUUUUGAUUAAAAAAUUACUGUAUUUAUUAUGACAAUG | 0.292 |
| AAGGGCUUCCAACAGGCAAAUUCAGGGAGAGAUAGGCUUCAGGGAAUAUAAACUUAAUAGUAGUGAUCAUGAAGUAUAAAUUUGAUAUAAUUGAAUUAUUUGUGAGGGAUGAUGAUAAAA | 1.09 |
| UAUUAGCAUCAUACCAGCAUAUUAACCUCUCGUCUGUGCACAGCUUCAAAUGUUACCGUCUAGUUAGAUUUUUAUUUAAAAUAUGAAAAACUGCUUUUCCCAAGAAGUUUUUUAAAAACA | 2.65 |
| AUCCCAGUUUGUAUGCACAUUAUUCACAUUCCUAUCUGUUGUGUUUGCAGAAAUGACAUUUUACCCUUUUCUAAGGGUUACUUUUUGAUUUUCAUAUUAUUUGGUUGCAUGAAGUUGCCC | 0.321 |
| AAAGUCCUGGCCACUUGUAUCACCUCAGUGAGGCAAAGGCUCCUAGCAUUCAGCCAGGACCAGCCCCGCCAUCCUCAGACUCAGCACCUGUAAUUUUAUUUCUUUUAUACAUGCCCAUCU | 0.642 |
| AUCUCAUAUUUAAUUUGCUCUUUUGUAUGUAUUAUGUUGUAAAUCUAUUAUGUAACAGUUUACAACAGUCCUUAUAAAAUUUUUAAAAUGGCUACAUCUGCAUAUGGUCUGAAUUCAAGA | 0.367 |
| UUCACCACUCCUGGGUGCGUGACUGAGGGUGAAGCAUCCACCAGCACUUCAAGGGGUCCAUAGUAUUUUCUUUUGCUGCCUCAAAGUCCCCAAAGCCUUCAAGCAGAAGUGGCAGUAGAU | 0.671 |

Block 2
Target: Sal-like protein 4, full length isoform B (SALL4, Homo sapiens, UniProt Q9UJQ4-2, residues 1-616)
Method: universal PBM
Form: double-stranded DNA, one strand shown
Sample: in vitro
Tested at: not given
Setting: 8-mer, flanks averaged, mean of replicates
Direction: higher = stronger binding
Residues (chain): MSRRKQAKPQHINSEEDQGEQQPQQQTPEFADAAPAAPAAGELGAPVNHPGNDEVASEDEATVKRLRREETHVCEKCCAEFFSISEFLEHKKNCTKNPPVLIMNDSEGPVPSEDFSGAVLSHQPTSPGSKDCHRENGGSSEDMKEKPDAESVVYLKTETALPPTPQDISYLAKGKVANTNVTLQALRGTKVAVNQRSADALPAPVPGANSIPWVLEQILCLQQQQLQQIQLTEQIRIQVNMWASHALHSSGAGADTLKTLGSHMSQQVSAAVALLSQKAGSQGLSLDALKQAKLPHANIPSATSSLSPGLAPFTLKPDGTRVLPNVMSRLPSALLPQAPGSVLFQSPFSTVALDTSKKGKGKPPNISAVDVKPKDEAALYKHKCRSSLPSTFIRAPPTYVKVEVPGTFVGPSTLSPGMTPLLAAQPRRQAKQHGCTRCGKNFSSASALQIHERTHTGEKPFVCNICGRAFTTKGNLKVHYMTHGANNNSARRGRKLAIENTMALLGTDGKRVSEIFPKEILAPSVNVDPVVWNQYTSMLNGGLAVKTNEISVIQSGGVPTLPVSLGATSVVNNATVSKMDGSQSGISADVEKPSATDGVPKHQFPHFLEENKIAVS
| Strand | E-score |
| --- | --- |
| GCACAACA | 0.132 |
| GTTATGGA | 0.265 |
| ACCAAATG | -0.0132 |
| GTACCCCA | -0.0976 |
| CCGATCTC | -0.278 |
| ACCGACCA | -0.221 |
| CATGAGGC | -0.209 |
| CGTTATAG | 0.221 |

Block 3
Target: Beta-adrenergic receptor kinase 1 (GRK2, Homo sapiens, UniProt P25098)
Sequence of UniProt P25098 (whole entry, looked up): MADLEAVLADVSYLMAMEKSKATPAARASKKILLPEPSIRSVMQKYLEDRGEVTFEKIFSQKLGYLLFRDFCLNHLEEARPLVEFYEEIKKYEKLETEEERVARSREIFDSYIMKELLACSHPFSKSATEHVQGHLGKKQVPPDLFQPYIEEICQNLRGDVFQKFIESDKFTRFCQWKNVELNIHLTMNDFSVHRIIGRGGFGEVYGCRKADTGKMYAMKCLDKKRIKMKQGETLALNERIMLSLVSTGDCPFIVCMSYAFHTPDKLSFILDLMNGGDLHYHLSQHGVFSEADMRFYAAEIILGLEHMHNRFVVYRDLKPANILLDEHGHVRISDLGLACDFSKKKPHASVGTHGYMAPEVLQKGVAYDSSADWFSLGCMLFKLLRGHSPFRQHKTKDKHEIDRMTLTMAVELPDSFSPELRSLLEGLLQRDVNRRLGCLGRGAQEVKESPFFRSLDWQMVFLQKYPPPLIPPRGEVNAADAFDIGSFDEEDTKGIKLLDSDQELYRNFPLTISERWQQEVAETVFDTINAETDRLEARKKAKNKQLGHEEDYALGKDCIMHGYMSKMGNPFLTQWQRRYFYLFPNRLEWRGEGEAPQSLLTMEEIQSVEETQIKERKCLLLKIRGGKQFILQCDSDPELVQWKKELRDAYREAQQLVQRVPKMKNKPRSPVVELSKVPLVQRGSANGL
Effect on: enzyme activity
Mode: inhibitor
Tested at: 0.5 µM
Reference: control
| Compound | remaining activity |
| --- | --- |
| CN(C)c1ccc(C=C2C(=O)Nc3ccccc32)cc1 | 101% |
| Cn1c2ccccc2c2c3c(c4c5ccccc5n(CCC#N)c4c21)CNC3=O | 103% |
| NCCNc1ncc(C(N)=O)c(Nc2cccc(C(F)(F)F)c2)n1 | 100% |
| Nc1ccc2ncnc(NCCc3ccc(Oc4ccccc4)cc3)c2c1 | 91.5% |
| COc1cc2nccc(Oc3ccc(NC(=S)NC(=O)c4ccccc4C)cc3)c2cc1OC | 95.6% |
| O=C(CCCc1ccc(-c2ccccc2F)cc1)Nc1ccc(O)cc1 | 105% |
| COc1cc2ncnc(Nc3ccc(Oc4ccccc4)cc3)c2cc1OC | 101% |
| CO[C@H]1C[C@@H]2CC[C@@H](C)[C@@](O)(O2)C(=O)C(=O)N2CCCC[C@H]2C(=O)O[C@H]([C@H](C)C[C@@H]2CC[C@@H](O)[C@H](OC)C2)CC(=O)[C@H](C)/C=C(\C)[C@@H](O)[C@@H](OC)C(=O)[C@H](C)C[C@H](C)/C=C/C=C/C=C/1C | 102% |
| O=C1NC(=O)C(c2cn(CCCn3ccnc3)c3ccccc23)=C1Nc1ccccc1 | 97.1% |
| COc1ccc(CNC(=O)Nc2ncc([N+](=O)[O-])s2)cc1 | 96.4% |
| Cc1ccc(Nc2nccc(N(C)c3ccc4c(C)n(C)nc4c3)n2)cc1S(N)(=O)=O | 90.3% |

Single results of other studies
| Structure (SMILES) | target | test | conditions | scale | quantity | value |
| --- | --- | --- | --- | --- | --- | --- |
| C[C@@H]1CN(c2cc(-c3nn(C)c4ccc(OC5(C)CC5)cc34)ncn2)C[C@H](C)O1 | HTR3A (Homo sapiens, UniProt P46098) | binding, radioligand binding | 10 µM | – | inhibition | -3.11% |
| CNC(=O)Nc1ccc2c(c1)CC[C@]21OC(=O)N(CC(=O)N(Cc2ccc(F)cc2)[C@@H](C)C(F)(F)F)C1=O | ABL1 (Homo sapiens, UniProt P00519, F317I) | KINOMEscan | 1 µM, F317I mutant, phosphorylated | reference: control | remaining binding | 87% |

Repeated from above (block 2):
| Strand | E-score |
| --- | --- |
| GCACAACA | 0.132 |
| GTTATGGA | 0.265 |
| ACCAAATG | -0.0132 |
| GTACCCCA | -0.0976 |
